Published values gathered from unrelated publications.
± gives the spread as reported.

For O=C([O-])CN(CCN(CC(=O)[O-])Cc1cc(CCC(=O)NCCCCCC(=O)NCCCC[C@H](NC(=O)N[C@@H](CCC(=O)O)C(=O)O)C(=O)O)ccc1O)Cc1cc(CCC(=O)O)ccc1[O-].[68Ga+3], the SUVmax was 23.1 ± 17.7 (FOLH1 (Homo sapiens, UniProt Q04609); PET/CT; prostate cancer patients, primary prostate lesions; 60 min post-injection).
The binding stoichiometry of CC(=O)N[C@H]1[C@@H](O[C@H](C)[C@H](NC(=O)[C@@H](NC(=O)CNC(=O)[C@@H](N)Cc2c[nH]cn2)C(C)C)C(=O)N[C@@H](CO)C(=O)N[C@@H](C)C(=O)N2CCC[C@H]2C(=O)N[C@@H](CC(=O)O)C(N)=O)O[C@H](CO)[C@H](O)[C@@H]1O[C@@H]1O[C@H](CO)[C@H](O)[C@H](O)[C@H]1O is reported as 0.97 (Galectin-3 (LGALS3, Homo sapiens, UniProt P17931); isothermal titration calorimetry; concentration not given, full-length protein).
N[C@H]1CCCCNC(=O)[C@H](Cc2ccccc2)NC(=O)[C@@H]2CCCN2C(=O)[C@@H](N)CCCCNC(=O)[C@H](Cc2ccccc2)NC(=O)[C@@H]2CCCN2C1=O — result for caspase-3/7 activity: “no effect” (E3 ubiquitin-protein ligase XIAP, BIR3 domain (XIAP, Homo sapiens, UniProt P98170); antagonist; MDA-MB-231 cell lysate; 100 µM, with: 500 nM XIAP BIR3 protein).
CCCN(CC(=O)N(CCC)CC(=O)N(CCC)CC(=O)N(CCC)CC(=O)N(CCC)CC(=O)N(CC(N)=O)Cc1cn(CCCNC(=O)CCCOc2cccc(-c3nc4ccc(-c5nc6ccc(N7CCN(C)CC7)cc6[nH]5)cc4[nH]3)c2)nn1)C(=O)CNCc1cn(CCCNC(=O)CCCOc2cccc(-c3nc4ccc(-c5nc6ccc(N7CCN(C)CC7)cc6[nH]5)cc4[nH]3)c2)nn1 gave a multivalent effect of 2.5 (MBNL1–r(CUG)109 complex; MBNL1 displacement; 0.65 pmol r(CUG)109; unit not given, with: yeast tRNA 3.7 µM; baseline: monomer 2 IC50 per module).
O=P(O)(O)O[C@@H]1[C@@H](O)[C@H](O)[C@H](O)[C@H](O)[C@H]1OP(=O)(O)O has a Hill coefficient of 0.8 ± 0.1 (Itpr1 (Rattus norvegicus, UniProt P29994); binding, 3H-IP3 competition; rat cerebellum).
For NC(=O)C1CCNC(=O)C(CCCNC(=O)c2cnccn2)NC(=O)C(CC2CCCCC2)NC(=O)C(CC2CC2)NC(=O)C=CC(=O)N1 (stereo not shown), the enrichment factor was 1.2 (ERBB4 (Homo sapiens, UniProt Q15303); DNA-templated library selection; one selection round).
Cc1cc(CC(=O)N2C[C@H](O)C[C@H]2C(=O)NCc2ccccc2)on1 — result for “binding free energy (ΔG)”: -4.4 ± 0.02 kcal/mol (von Hippel-Lindau disease tumor suppressor, with Elongin B/C (VHL, Homo sapiens, UniProt P40337); isothermal titration calorimetry; 25 °C).
O=C(O)c1cc([N+](=O)[O-])ccc1NCCCc1ccccc1 has a current of 13% (CFTR (Homo sapiens, UniProt P13569, K1250A); chloride current, pore blocker, inside-out patch clamp; K1250A; 210 µM, at -80 mV; baseline: control).
With CC[C@@]1(c2cccc(C(F)(F)F)c2)C2=C(Nc3n[nH]cc31)[C@H](F)C(C)(C)CC2=O (single isomer, unassigned) the target engagement was over 90% (Glycogen synthase kinase-3 alpha (Gsk3a, Rattus norvegicus, UniProt P18265); kinobead chemoproteomics; P10 rat, brain; 60 mg/kg, 3 h post-dose at Cmax).
For CNc1ccccc1C(=O)O[C@H]1C[C@H](n2cnc3c(N)ncnc32)O[C@@H]1COP(=O)(O)OP(=O)(O)O, “FRET distance difference” read about 5 Å (Unconventional myosin-Va (Gallus gallus, UniProt Q02440, D297C/G292C/I296C/S293C/V295G); higher temperatures; baseline: without Mg).
For COc1cc(C(=O)NC2CCC(N3CCN(CC4CCC5(CCCC5)C4)CC3)CC2)c(F)cc1Nc1ncc2c(n1)N(C1CCCC1(F)F)CC(F)(F)C(=O)N2C (stereo not shown), the inhibition was 0.08% (ABL2 (Homo sapiens, UniProt P42684); cell-free assay, TR-FRET; 10 µM).
CCc1cc(C)n2nc(-c3ccc(OCC[18F])cc3)c(CC(=O)N(CC)CC)c2n1: “k4 rate constant” 0.082 ± 0.015 min⁻¹ (Tspo (Rattus norvegicus, UniProt P16257); two-tissue compartment model; rat C6 glioma model, brain; 60 min dynamic PET).
C=C1CN(S(=O)(=O)c2ccc(C)cc2)CCCN(Cc2ccccc2)CCCN(S(=O)(=O)c2ccc(C)cc2)C1 — result for “surface expression reduction”: 74% (CD4 (Homo sapiens, UniProt P01730); SUP-T1; 10 µM, 24 h).

A few entries again:
Cc1cc(CC(=O)N2C[C@H](O)C[C@H]2C(=O)NCc2ccccc2)on1 — result for “binding free energy (ΔG)”: -4.4 ± 0.02 kcal/mol (von Hippel-Lindau disease tumor suppressor, with Elongin B/C (VHL, Homo sapiens, UniProt P40337); isothermal titration calorimetry; 25 °C).
The binding stoichiometry of CC(=O)N[C@H]1[C@@H](O[C@H](C)[C@H](NC(=O)[C@@H](NC(=O)CNC(=O)[C@@H](N)Cc2c[nH]cn2)C(C)C)C(=O)N[C@@H](CO)C(=O)N[C@@H](C)C(=O)N2CCC[C@H]2C(=O)N[C@@H](CC(=O)O)C(N)=O)O[C@H](CO)[C@H](O)[C@@H]1O[C@@H]1O[C@H](CO)[C@H](O)[C@H](O)[C@H]1O is reported as 0.97 (Galectin-3 (LGALS3, Homo sapiens, UniProt P17931); isothermal titration calorimetry; concentration not given, full-length protein).
